# Measured values gathered from unrelated publications.
# Compare with care: the assays were run in different laboratories. “And” joins repeats or separate records; there may be more than shown.
Compound,organism,assay,test system,conditions,how to read,quantity,result
O=C(c1cccc(-c2ccc3ncnc(Nc4ccc(OCc5cccc(F)c5)c(Cl)c4)c3c2)c1)N1CCCC1,Leishmania major,"parasite growth, resazurin",,promastigote,,EC50,> 15 µM
CC1(C)[C@H](NC(=O)/C(=N\OCc2cc(=O)c(O)cn2O)c2csc(N)n2)C(=O)N1OS(=O)(=O)O,Shigella flexneri,agar dilution,ATCC 12022 susceptible,,,MIC,0.125 µg/mL
C[C@@H]1C(=O)O[C@@H](C)/C=C/C=C\[C@@H](C)[C@@H]2C=C[C@@H]3C[C@@]4(C)O[C@H]4[C@@H](C)[C@H]3[C@@H]2C(=O)C(Cl)(Cl)C1=O,Staphylococcus aureus,,MRSA clinical isolate,resistant OXA/SXT,,MIC,0.1 µg/mL
CN(Cc1ccc(C2(C(F)(F)F)CCC2)cc1)Cc1cccc2ccccc12,Trichophyton mentagrophytes,"microbial growth, disc diffusion",ATCC18748,"0.001 µg/mL, 72 h",,inhibition zone,0 mm
Cc1cc(Cl)cc(S(C)=NC#N)c1NC(=O)c1cc(Br)nn1-c1ncccc1Cl (stereo not shown),Spodoptera litura,,Brassica oleracea field,"50 ppm, 72 h, 10% wettable powder",,larval survival,23.1%
CC(=O)O[C@@H]1[C@@H](OC(C)=O)[C@H](Sc2sc(C(=O)c3ccc(Cl)cc3)c(N)c2-c2nc3ccccc3s2)OC[C@H]1OC(C)=O,human adenovirus type 7,plaque reduction,,non-toxic concentration,,viral titre reduction,0%
CC1(C)[C@H](NC(=O)/C(=N\OCC(=O)N2CCC(C(=O)O)C2)c2nsc(N)n2)C(=O)N1OS(=O)(=O)O (stereo partly shown),Shigella flexneri,agar dilution,"ATCC 12022, susceptible",,,MIC,8 µg/mL
CC(C)n1ncc2c(C(=O)NCC(C)(C)N)cc(C3CC3)nc21,Enterovirus D68,viral replication,"RD, US/MO/14-18947",10 nM,,plaque reduction,8.56% and 0%
Cc1c(CN(C)C(=O)/C=C/c2cnc3c(c2)CC(N)C(=O)N3)oc2ccccc12 (stereo not shown),Klebsiella pneumoniae,broth microdilution,AR-0347,,,MIC,16 µg/mL
C=C[C@]1(C)C[C@@H](OC(=O)CSc2ccc(NC(=O)c3ccco3)cc2)[C@]2(C)[C@H](C)CC[C@]3(CCC(=O)[C@H]32)[C@@H](C)[C@@H]1O,Mycoplasma gallisepticum,,"infected chickens, lung","intramuscular, 80 mg/kg daily x3, 72 h",reference: 0 h,lung mycoplasma load reduction,3.13 log10 CFU/mL and 2.24 log10 CFU/mL and 2.83 log10 CFU/mL and 2.87 log10 CFU/mL and 4.13 log10 CFU/mL and 3.44 log10 CFU/mL and 3.46 log10 CFU/mL
CC1(C)C(NC(=O)C(=NOC2(C(=O)O)CCC2)c2csc(N)n2)C(=O)N1OS(=O)(=O)O (stereo not shown),Shigella flexneri,agar dilution,"ATCC 12022, susceptible",,,MIC,1 µg/mL
CN1CCN(S(=O)(=O)c2ccc(-c3ccc4ncnc(Nc5ccccc5)c4c3)cc2)CC1,Leishmania major,"parasite growth, resazurin",,promastigote,,EC50,6.1 µM
CC1(C)[C@H](NC(=O)/C(=N\OC2(C(=O)O)CC2)c2nsc(N)n2)C(=O)N1OS(=O)(=O)O,Proteus vulgaris,agar dilution,"ATCC 29905, susceptible",,,MIC,≤ 0.03 µg/mL
O=S(=O)(c1ccc(-c2ccc3ncnc(Nc4ccc(OCc5cccc(F)c5)c(Cl)c4)c3c2)cc1)N1CCOCC1,Leishmania major,"parasite growth, resazurin",,promastigote,,EC50,1.6 µM
CC(C)n1ncc2c(C(=O)NCC3CNC3)cc(C3CC3)nc21,Enterovirus D68,viral replication,"RD, US/MO/14-18947",30 nM,,plaque reduction,0%
O=S(=O)(c1ccc(-c2ccc3ncnc(Nc4ccc(OCc5ccc(C(F)(F)F)c(F)c5)c(Cl)c4)c3c2)cc1)N1CCOCC1,Leishmania major,"parasite growth, resazurin",,promastigote,,EC50,> 15 µM
N=C(S)N/N=C/c1ncc(C(F)(F)F)cc1Cl,Mus musculus,"gene silencing, high-content imaging",LDR reporter GFP cells,"30 h, retest run 1",,Emax,82%
CS(=O)(=O)c1ccc(-c2ccc3ncnc(Nc4ccc(OCc5cccc(F)c5)c(Cl)c4)c3c2)cc1,Leishmania major,"parasite growth, resazurin",,promastigote,,EC50,1.6 µM
CCN(CC)CCCNC(=O)CSc1c2c(nc3cc(Cl)ccc13)CCCC2,Mus musculus,"gene silencing, high-content imaging",LDR reporter GFP cells,"30 h, retest, mean of two runs",,Emax,86%
Cc1cnc(CNC(=O)c2c(=O)c3ccc(N4CCCN(C)CC4)nc3n3c2sc2ccccc23)cn1,Trypanosoma brucei,RNA-seq,Lister 427 bloodstream form,"2 x EC50, 4 h",reference: untreated,unchanged G4-containing genes,712 genes
CN1CCN(S(=O)(=O)c2ccc(-c3ccc4ncnc(Nc5ccc(OCc6ccccc6)cc5)c4c3)cc2)CC1,Leishmania major,"parasite growth, resazurin",,promastigote,,EC50,1.5 µM
CC(C)(C)NCC(SS(=O)(=O)O)c1ccccc1 (stereo not shown),Schistosoma mansoni,perfusion day 44,infected Swiss Webster mice,"600 mg/kg single dose, dosed day 7 post-infection",,liver weight,2.3 g and 1.75 g and 2.2 g and 2.4 g and 1.9 g
CCCC(=O)N1CCN(c2ccc(NC(=O)c3ccc([N+](=O)[O-])o3)cc2Cl)CC1,Mus musculus,"gene silencing, high-content imaging",LDR reporter GFP cells,"30 h, retest run 2",,Emax,59%
CN(C)CCNC(=O)c1cccn2c(=O)c3cc4ccccc4cc3nc12,Trypanosoma brucei,RNA-seq,Lister 427 bloodstream form,"2 × EC50, 4 h, log2 FC 1, FDR 0.05",reference: untreated,upregulated genes,19 genes
CC(=O)OC[C@H]1O[C@@H](Sc2sc(C(=O)c3ccc(C)cc3)c(N)c2-c2nc3ccccc3s2)[C@H](OC(C)=O)[C@@H](OC(C)=O)[C@H]1OC(C)=O,human adenovirus type 7,plaque reduction,,non-toxic concentration,,viral titre reduction,10%
[2H]C([2H])(N)C([2H])([2H])NC(=O)c1cc(C2CC2)nc2c1cnn2C(C)C,Enterovirus D68,viral replication,"RD, US/MO/14-18947",10 nM,,plaque reduction,0%
COc1cccc(/C=N/Nc2nc(Nc3ccccc3)nc(-n3nc(C)cc3C)n2)c1O,Mus musculus,"gene silencing, high-content imaging",LDR reporter GFP cells,retest run 1,,AC50,5.01 µM
CN(C)c1cccc(-c2ccc3ncnc(Nc4ccc(OCc5cccc(F)c5)c(Cl)c4)c3c2)c1,Leishmania major,"parasite growth, resazurin",,promastigote,,EC50,> 15 µM
Cc1cccc2c1N(C(=O)n1ccnn1)CC2,Arabidopsis thaliana,,"wild type, seedlings","30 µM, continuous red light, added: 0.3 µM karrikin KAR2",,hypocotyl length,11.9 mm
O=[N+]([O-])C(=C\Nc1ccccc1O)/C=N/c1ccccc1O,Mus musculus,"gene silencing, high-content imaging",LDR reporter GFP cells,"30 h, retest run 1",,Emax,17%
Cc1ccc(Nc2ncnc3ccc(-c4ccc(S(=O)(=O)N5CCOCC5)cc4)cc23)cc1,Leishmania major,"parasite growth, resazurin",,promastigote,,EC50,0.45 µM
O=C(CSc1cccc[n+]1[O-])c1ccccc1Br,Mus musculus,"gene silencing, high-content imaging",LDR reporter GFP cells,retest run 1,,AC50,25.1 µM
O=C1NC(=O)C2(NC1Cc1ccccc1)C1CC3CC(C1)CC2C3 (stereo not shown),Trypanosoma brucei,parasite growth,,"pH 7.4, blood stage",,IC90,27.1 µM
COc1nc(Nc2nc(O)c3ccccc3n2)nc2ccc(C)cc12,Mus musculus,"gene silencing, high-content imaging",LDR reporter GFP cells,"30 h, retest run 1",,Emax,34%
CC1(C)C(NC(=O)C(=NOC2(C(=O)O)CC2)c2csc(N)n2)C(=O)N1OS(=O)(=O)O (stereo not shown),Proteus vulgaris,agar dilution,"ATCC 29905, susceptible",,,MIC,≤ 0.03 µg/mL
C(=N\Nc1nc(-c2ccccn2)nc2ccccc12)/c1ccccc1,Mus musculus,"gene silencing, high-content imaging",LDR reporter GFP cells,"30 h, retest, mean of two runs",,Emax,124%
C=C(NC(=O)c1csc(-c2nc3c(cc2O)-c2nc(cs2)C(=O)NC(C(C)O)C(=O)NC(=C(C)OC)c2nc(cs2)C(=O)NC2c4nc(cs4)C(=O)NC(COC(=O)c4c5c6c(cccc6n4O)COC(=O)C(OC4CC(C)(O)C(N(C)C)C(C)O4)C2OC5)c2nc-3cs2)n1)C(N)=O (stereo not shown),Streptococcus pyogenes,,10 isolates,serum 0%,,MIC50,0.0078 µg/mL

# For quick reference, copied from above:
Compound,organism,assay,test system,conditions,how to read,quantity,result
N=C(S)N/N=C/c1ncc(C(F)(F)F)cc1Cl,Mus musculus,"gene silencing, high-content imaging",LDR reporter GFP cells,"30 h, retest run 1",,Emax,82%
CS(=O)(=O)c1ccc(-c2ccc3ncnc(Nc4ccc(OCc5cccc(F)c5)c(Cl)c4)c3c2)cc1,Leishmania major,"parasite growth, resazurin",,promastigote,,EC50,1.6 µM
CCN(CC)CCCNC(=O)CSc1c2c(nc3cc(Cl)ccc13)CCCC2,Mus musculus,"gene silencing, high-content imaging",LDR reporter GFP cells,"30 h, retest, mean of two runs",,Emax,86%
